Results of several laboratories.
Every numbered part comes from another study and shows a few of its results, in no order. Values joined by “and” are separate records of one study, mostly repeats; a detail may differ.
Sequence of UniProt Q9H1R3 (whole entry, looked up): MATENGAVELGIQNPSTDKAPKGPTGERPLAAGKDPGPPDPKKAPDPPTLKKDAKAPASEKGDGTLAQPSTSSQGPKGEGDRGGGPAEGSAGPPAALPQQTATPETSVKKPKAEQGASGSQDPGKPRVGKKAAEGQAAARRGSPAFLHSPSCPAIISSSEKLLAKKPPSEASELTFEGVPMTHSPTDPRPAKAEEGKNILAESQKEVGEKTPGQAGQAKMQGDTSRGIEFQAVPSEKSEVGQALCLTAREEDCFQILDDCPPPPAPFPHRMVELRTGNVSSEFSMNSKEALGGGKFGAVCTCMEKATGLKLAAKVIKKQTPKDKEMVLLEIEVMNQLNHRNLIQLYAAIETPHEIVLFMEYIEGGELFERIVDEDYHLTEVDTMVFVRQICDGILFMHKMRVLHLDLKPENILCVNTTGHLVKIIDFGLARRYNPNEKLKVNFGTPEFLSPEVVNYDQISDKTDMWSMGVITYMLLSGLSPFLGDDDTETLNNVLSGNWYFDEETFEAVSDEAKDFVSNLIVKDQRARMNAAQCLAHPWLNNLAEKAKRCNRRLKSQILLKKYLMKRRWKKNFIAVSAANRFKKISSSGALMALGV
Sequence of UniProt O43283 (whole entry, looked up): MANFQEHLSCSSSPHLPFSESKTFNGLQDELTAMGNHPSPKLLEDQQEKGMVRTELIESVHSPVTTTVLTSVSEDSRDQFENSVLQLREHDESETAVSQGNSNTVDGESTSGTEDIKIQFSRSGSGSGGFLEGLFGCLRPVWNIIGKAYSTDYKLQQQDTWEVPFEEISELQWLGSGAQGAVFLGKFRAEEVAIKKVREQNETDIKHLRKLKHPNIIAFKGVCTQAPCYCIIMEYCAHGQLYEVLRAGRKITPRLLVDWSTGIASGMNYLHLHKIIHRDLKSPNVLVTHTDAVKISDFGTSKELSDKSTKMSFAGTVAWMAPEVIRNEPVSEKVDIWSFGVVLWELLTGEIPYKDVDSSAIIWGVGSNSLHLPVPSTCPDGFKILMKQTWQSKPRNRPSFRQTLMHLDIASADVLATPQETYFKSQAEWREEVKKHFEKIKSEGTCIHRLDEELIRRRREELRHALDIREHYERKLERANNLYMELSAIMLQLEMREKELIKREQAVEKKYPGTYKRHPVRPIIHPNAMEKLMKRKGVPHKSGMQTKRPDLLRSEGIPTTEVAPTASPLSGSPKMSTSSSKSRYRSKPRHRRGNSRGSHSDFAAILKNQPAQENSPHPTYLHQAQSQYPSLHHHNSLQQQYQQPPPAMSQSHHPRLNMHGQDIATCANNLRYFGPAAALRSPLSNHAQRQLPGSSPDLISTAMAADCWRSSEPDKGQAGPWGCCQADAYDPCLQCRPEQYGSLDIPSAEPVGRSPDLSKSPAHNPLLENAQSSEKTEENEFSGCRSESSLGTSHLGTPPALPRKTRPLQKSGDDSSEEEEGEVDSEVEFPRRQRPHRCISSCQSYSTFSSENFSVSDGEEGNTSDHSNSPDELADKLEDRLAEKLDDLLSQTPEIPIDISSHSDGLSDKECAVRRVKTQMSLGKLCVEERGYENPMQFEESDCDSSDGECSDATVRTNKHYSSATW
Sequence of UniProt P42336 (whole entry, unmodified, looked up): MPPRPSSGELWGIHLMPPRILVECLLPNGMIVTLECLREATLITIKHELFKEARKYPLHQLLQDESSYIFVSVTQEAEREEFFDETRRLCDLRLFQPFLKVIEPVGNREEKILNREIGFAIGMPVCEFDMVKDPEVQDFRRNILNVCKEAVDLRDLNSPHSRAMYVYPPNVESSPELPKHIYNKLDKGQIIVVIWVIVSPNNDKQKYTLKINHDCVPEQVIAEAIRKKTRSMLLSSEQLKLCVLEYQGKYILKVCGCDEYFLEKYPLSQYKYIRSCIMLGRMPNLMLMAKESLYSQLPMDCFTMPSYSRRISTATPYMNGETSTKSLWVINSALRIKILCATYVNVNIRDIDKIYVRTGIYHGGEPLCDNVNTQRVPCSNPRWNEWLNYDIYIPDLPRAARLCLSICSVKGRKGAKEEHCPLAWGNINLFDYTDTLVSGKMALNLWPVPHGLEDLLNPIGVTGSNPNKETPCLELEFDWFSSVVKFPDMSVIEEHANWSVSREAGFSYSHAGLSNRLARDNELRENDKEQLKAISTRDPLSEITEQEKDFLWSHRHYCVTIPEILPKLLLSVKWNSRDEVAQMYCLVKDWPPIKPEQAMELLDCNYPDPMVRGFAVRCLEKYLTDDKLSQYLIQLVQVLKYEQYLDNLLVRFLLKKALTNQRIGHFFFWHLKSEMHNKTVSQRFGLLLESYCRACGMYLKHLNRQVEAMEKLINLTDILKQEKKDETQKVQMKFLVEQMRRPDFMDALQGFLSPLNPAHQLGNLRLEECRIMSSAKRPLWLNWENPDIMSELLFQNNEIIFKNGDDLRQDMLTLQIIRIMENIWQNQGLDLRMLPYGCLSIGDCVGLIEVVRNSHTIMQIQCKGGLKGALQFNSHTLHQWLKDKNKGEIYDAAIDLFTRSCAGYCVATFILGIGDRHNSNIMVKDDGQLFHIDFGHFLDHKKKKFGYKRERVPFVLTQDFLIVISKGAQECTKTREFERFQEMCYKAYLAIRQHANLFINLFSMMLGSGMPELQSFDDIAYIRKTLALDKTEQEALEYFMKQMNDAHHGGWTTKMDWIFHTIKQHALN
Sequence of UniProt Q9Y2K2 (whole entry, looked up): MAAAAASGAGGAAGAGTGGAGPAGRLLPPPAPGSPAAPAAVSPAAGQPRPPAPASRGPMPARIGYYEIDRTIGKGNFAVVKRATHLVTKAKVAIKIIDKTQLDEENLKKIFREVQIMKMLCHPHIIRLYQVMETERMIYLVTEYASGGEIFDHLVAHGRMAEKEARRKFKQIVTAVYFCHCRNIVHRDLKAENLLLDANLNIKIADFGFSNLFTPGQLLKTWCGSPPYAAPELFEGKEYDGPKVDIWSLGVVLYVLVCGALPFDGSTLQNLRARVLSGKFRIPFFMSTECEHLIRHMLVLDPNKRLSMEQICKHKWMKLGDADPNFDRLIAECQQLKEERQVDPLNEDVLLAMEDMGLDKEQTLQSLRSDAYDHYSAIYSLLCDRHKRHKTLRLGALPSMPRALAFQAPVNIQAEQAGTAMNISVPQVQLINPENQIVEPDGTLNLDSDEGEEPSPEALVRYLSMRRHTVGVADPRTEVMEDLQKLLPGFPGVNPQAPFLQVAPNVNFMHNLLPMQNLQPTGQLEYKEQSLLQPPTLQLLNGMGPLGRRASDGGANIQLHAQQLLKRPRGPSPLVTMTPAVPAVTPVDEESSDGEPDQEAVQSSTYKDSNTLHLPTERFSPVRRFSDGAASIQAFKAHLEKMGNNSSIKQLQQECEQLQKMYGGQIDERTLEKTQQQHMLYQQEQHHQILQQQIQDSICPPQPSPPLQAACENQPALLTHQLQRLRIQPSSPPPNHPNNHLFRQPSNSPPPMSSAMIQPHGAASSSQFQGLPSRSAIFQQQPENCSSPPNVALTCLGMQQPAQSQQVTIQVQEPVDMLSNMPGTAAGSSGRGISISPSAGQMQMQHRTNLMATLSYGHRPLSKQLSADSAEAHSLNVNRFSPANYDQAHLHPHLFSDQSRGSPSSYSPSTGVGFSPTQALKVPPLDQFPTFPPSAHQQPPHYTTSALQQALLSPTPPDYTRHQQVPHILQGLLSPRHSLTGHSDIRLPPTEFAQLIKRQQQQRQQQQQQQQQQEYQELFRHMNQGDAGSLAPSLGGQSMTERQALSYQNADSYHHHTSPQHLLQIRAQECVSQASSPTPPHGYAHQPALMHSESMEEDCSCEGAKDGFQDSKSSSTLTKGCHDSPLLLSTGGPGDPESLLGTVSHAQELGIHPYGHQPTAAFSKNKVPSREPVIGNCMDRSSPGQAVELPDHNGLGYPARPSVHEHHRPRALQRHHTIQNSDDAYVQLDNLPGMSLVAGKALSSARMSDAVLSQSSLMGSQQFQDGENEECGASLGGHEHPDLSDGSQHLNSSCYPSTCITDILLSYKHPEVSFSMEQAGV
Sequence of UniProt Q9NQU5 (whole entry, looked up): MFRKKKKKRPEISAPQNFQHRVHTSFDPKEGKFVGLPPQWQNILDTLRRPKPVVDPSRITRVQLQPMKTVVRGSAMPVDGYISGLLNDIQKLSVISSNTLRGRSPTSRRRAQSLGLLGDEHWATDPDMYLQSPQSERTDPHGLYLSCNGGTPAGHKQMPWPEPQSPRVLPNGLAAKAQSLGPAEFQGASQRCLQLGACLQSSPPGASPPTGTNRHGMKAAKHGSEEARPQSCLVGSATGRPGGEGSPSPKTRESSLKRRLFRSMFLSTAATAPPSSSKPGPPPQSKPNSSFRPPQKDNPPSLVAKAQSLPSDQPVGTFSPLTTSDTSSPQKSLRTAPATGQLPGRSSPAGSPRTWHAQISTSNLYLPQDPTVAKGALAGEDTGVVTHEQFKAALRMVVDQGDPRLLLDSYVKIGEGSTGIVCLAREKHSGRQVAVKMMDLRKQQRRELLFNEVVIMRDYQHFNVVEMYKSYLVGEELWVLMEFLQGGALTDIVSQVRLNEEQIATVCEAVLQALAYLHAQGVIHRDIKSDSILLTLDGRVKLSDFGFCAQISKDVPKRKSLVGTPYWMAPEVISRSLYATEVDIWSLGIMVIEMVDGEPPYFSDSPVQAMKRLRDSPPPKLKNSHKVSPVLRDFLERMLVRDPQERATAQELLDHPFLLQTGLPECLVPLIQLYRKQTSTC
Sequence of UniProt Q8IY84 (whole entry, looked up): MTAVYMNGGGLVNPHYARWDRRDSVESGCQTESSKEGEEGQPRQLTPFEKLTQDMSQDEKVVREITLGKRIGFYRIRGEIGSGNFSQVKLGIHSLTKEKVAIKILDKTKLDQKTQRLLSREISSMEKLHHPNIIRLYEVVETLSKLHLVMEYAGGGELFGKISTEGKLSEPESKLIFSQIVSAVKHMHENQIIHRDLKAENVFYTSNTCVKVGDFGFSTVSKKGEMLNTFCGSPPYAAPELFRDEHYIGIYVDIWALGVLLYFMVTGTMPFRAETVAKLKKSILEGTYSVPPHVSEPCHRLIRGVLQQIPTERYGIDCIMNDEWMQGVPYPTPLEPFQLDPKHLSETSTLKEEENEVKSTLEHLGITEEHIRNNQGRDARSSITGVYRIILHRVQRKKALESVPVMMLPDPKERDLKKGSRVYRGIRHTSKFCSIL

Set 1
Organism: Sarcocystis neurona
Effect on: parasite growth
Tested at: 10 µM
Compound	inhibition [%]
CCN(C(C)=O)c1cccc(-c2ccnc3c(C#N)cnn23)c1	-22
COc1cc2c(cc1OC)[C@@]13CCN4CC5=CCO[C@H]6CC(=O)N2[C@H]1[C@H]6[C@H]5C[C@H]43	7.4
C[C@]12Cc3c[nH]nc3C[C@@H]1CC[C@@H]1[C@@H]2CC[C@@]2(C)[C@H]1CC[C@]2(C)O	10.2
CCCC(C)(COC(N)=O)COC(=O)NC(C)C (stereo not drawn)	-26.7
NCCc1ccccn1	9.4
CCOC(=O)C1(c2ccccc2)CCN(CCC(C#N)(c2ccccc2)c2ccccc2)CC1	9.1

Set 2
Cell line: HaCaT
Tested at: 100 µM
Time: 36 h
Compound	viability [%]
CC[C@]12C=CCN3CC[C@]4(C(=C(C(=O)OC)C1)Nc1ccccc14)[C@@H]32	7.58
CC[C@@H](C(N)=O)N1CCCC1=O	92.1
CN(C(=O)/C=C/c1ccoc1)[C@@H]1CC[C@@]2(O)[C@H]3Cc4ccc(O)c5c4[C@@]2(CCN3CC2CC2)[C@H]1O5	69.4
Cc1c(N)nc([C@H](CC(N)=O)NC[C@H](N)C(N)=O)nc1C(=O)N[C@H](C(=O)N[C@H](C)[C@@H](O)[C@H](C)C(=O)N[C@H](C(=O)NCCc1nc(-c2nc(C(=O)NCCC[S+](C)C)cs2)cs1)[C@@H](C)O)[C@@H](O[C@@H]1O[C@@H](CO)[C@@H](O)[C@H](O)[C@@H]1O[C@H]1O[C@H](CO)[C@@H](O)[C@H](OC(N)=O)[C@@H]1O)c1c[nH]cn1	44.7
NCC1(CC(=O)O)CCCCC1	98.8

Set 3
Cell line: mouse MPNST tumor cells
Method: high-content immunofluorescence imaging
Measured: nuclear SOX9
Tested at: 10 µM
Time: 12 h
Setting: mean of 2 replicates
Baseline: DMSO control
Direction: higher = more nuclear SOX9
SMILES	nuclear SOX9 intensity
COc1ccc(OC)c(C(O)C(C)N)c1 (stereo not drawn)	99.7 % of DMSO
CC(C)C[C@H](CN)CC(=O)O	100 % of DMSO
CC[C@@H](C(N)=O)N1CCCC1=O	106 % of DMSO and 85.1 % of DMSO and 99.1 % of DMSO
CN1CCN(C(=O)OC2c3nccnc3C(=O)N2c2ccc(Cl)cn2)CC1 (stereo not drawn)	91.5 % of DMSO
CC(NC(C)(C)C)C(=O)c1cccc(Cl)c1 (stereo not drawn)	96.9 % of DMSO and 95.4 % of DMSO

Set 4
Species: mouse
Medium: microsomes or S9
Tested at: 2 µM
Time: 0.5 h
Structure (SMILES)	remaining compound [%]
CC(C)CCC1(CN2CCCC2=O)C(=O)NC(=O)NC1=O	98.7
CC(C)=CCN1CCCC(C(=O)c2nccn2C)C1 (stereo not drawn)	45.7
O=C1N=C(O)C(CCc2ccncc2)(Cc2ccc(OCc3ccccc3)cc2)C(=O)N1 (stereo not drawn)	16.8
O=S(=O)(CC1C(c2ccccc2)N1c1ccccc1)c1ccccc1 (stereo not drawn)	0.285
c1cc2c(cn1)CN(c1ncnc3sc4c(c13)CCCC4)C2	2.69

Set 5
SMILES: Cc1ncsc1-c1ccc([C@H](C)NC(=O)[C@@H]2C[C@@H](O)CN2C(=O)[C@@H](NC(=O)CNC(=O)c2ccc(F)c(-c3ccc(N4C[C@@H](C)N(C)[C@@H](C)C4)c(NC(=O)c4c[nH]c(=O)cc4C(F)(F)F)c3)c2)C(C)(C)C)cc1
Cell line: MV4-11
Method: ATPlite
Time: 5 days
Baseline: DMSO
tested at	viability
0.0063 µM	51.6% and 57.6% and 55.5% and 81%
0.0794 µM	17.5% and 20.1% and 27.2% and 22.5%
1 µM	4.72% and 5.8% and 6.89% and 5%
0.0341 µM	36.1% and 24.7% and 21% and 36.7%
0.0005 µM	84.6% and 80.1% and 96% and 107%

Set 6
Structure (SMILES): N#CC1(c2ccccn2)CCN(Cc2cc(C(=O)O)c(=O)n3ccccc23)CC1
Effect on: cell-free assay
Method: competition with immobilised ligand
Tested at: 1 µM
target	remaining binding
Myosin light chain kinase 2, skeletal/cardiac muscle (MYLK2, Homo sapiens, UniProt Q9H1R3)	94%
Mitogen-activated protein kinase kinase kinase 19 (MAP3K19, Homo sapiens, UniProt Q56UN5)	77%
Serine/threonine-protein kinase NIM1 (NIM1K, Homo sapiens, UniProt Q8IY84)	69%
Phosphatidylinositol 4,5-bisphosphate 3-kinase catalytic subunit alpha isoform (PIK3CA, Homo sapiens, UniProt P42336, E545A)	100%
Tyrosine-protein kinase ABL1, non-phosphorylated (ABL1, Homo sapiens, UniProt P00519, Q252H)	89%
Leucine-rich repeat serine/threonine-protein kinase 2 (LRRK2, Homo sapiens, UniProt Q5S007)	65%
Wee1-like protein kinase 2 (WEE2, Homo sapiens, UniProt P0C1S8)	100%
Epidermal growth factor receptor (EGFR, Homo sapiens, UniProt P00533, del746-750)	100%
Serine/threonine-protein kinase SIK3 (SIK3, Homo sapiens, UniProt Q9Y2K2)	97%
Ribosomal protein S6 kinase alpha-5, N-terminal kinase domain (RPS6KA5, Homo sapiens, UniProt O75582)	100%
Phosphatidylinositol 4,5-bisphosphate 3-kinase catalytic subunit delta isoform (PIK3CD, Homo sapiens, UniProt O00329)	91%
Mitogen-activated protein kinase 11 (MAPK11, Homo sapiens, UniProt Q15759)	100%
Macrophage colony-stimulating factor 1 receptor, autoinhibited (CSF1R, Homo sapiens, UniProt P07333)	100%
Serine/threonine-protein kinase RIO1 (RIOK1, Homo sapiens, UniProt Q9BRS2)	88%
Activin receptor type-2B (ACVR2B, Homo sapiens, UniProt Q13705)	97%
Receptor-type tyrosine-protein kinase FLT3 (FLT3, Homo sapiens, UniProt P36888, N841I)	97%
Myosin light chain kinase, smooth muscle (MYLK, Homo sapiens, UniProt Q15746)	87%
Leukocyte tyrosine kinase receptor (LTK, Homo sapiens, UniProt P29376)	100%
Serine/threonine-protein kinase PAK 6 (PAK6, Homo sapiens, UniProt Q9NQU5)	100%
Cyclin-dependent kinase 16 (CDK16, Homo sapiens, UniProt Q00536)	67%
Mitogen-activated protein kinase kinase kinase 13 (MAP3K13, Homo sapiens, UniProt O43283)	78%
Fibroblast growth factor receptor 3 (FGFR3, Homo sapiens, UniProt P22607)	100%

Excerpt of the above (set 6):
target	remaining binding
Leucine-rich repeat serine/threonine-protein kinase 2 (LRRK2, Homo sapiens, UniProt Q5S007)	65%
Ribosomal protein S6 kinase alpha-5, N-terminal kinase domain (RPS6KA5, Homo sapiens, UniProt O75582)	100%
Serine/threonine-protein kinase SIK3 (SIK3, Homo sapiens, UniProt Q9Y2K2)	97%
Myosin light chain kinase 2, skeletal/cardiac muscle (MYLK2, Homo sapiens, UniProt Q9H1R3)	94%
